Assay results pooled from the literature.
Each line is one published result; not all experiments were run side by side. “And” joins repeats or separate records; there may be more than shown. ± gives the spread as reported.

CC(C)(C)c1ccc(O)c(CN(Cc2cc(C(C)(C)C)ccc2O)C2CCC(NC(N)=O)CC2)c1 (stereo not drawn)  dose-normalised Cmax (C57BL/6 mice, male, plasma; intraperitoneal, 10 mg/kg, single dose): 224 ng/mL per mg/kg
NC1(C(=O)N[C@@H](CCO)c2ccc(Cl)cc2)CCN(c2nc[nH]c3nccc2-3)CC1  incidence of decreased appetite (metastatic CRPC patients; 480 mg b.i.d., grade 3 to 4, treatment-related, added: enzalutamide 160 mg daily): 0%
O=C1NCCc2nc(OCc3cccc(F)c3)ccc21  Irwin test score (item: Salivation; Sprague-Dawley rat, male; oral, 100 mg/kg, 1 h, score 0 none to 2 full; direction not given): 0
COc1cc(Cl)c(C(=O)N[C@@H](CN[C@H]2CC[C@@H](N)CC2)Cc2ccc(C#N)cc2)cc1-c1ccc(CN[C@H](C)c2ccc(C)cc2)o1  blood clearance (mouse liver microsomes; 1 µM, pH 7.4): 20 mL/min/kg
C[C@H](CCC(=O)NCCS(=O)(=O)O)[C@H]1CC[C@H]2[C@@H]3CC[C@@H]4C[C@H](OS(=O)(=O)O)CC[C@]4(C)[C@H]3CC[C@]12C  relative peak deviation (human, plasma; endogenous control diurnal; reference: daily mean concentration): 81.4 ± 14.2%
CCN(CCO)CCCC(C)Nc1ccnc2cc(Cl)ccc12 (stereo not drawn)  average concentration (human, whole blood; oral, 800 mg): 2070 ng/mL and 1730 ng/mL
O=C(O)CCC(=O)O.[2H]C([2H])([2H])Oc1cc(C)c2[nH]ccc2c1CN1CC[C@@H](C2CC2)C[C@H]1c1ccc(C(=O)O)cc1  subjects with elevated bilirubin TEAE (multiple ascending dose; healthy Chinese subjects; 100 mg twice daily): 12.5%
CCc1cc(C(=O)NC)c2nccc(N3CCc4c(cc(Cn5ccnc5)cc4-c4cn(C)nc4C(F)(F)F)C3=O)c2c1  serum ALT change (Sprague Dawley rats; oral, 50 mg/kg once daily, 7 days; reference: vehicle): 0.8%
N#Cc1ccc(C(c2ccc(C#N)cc2)n2cncn2)cc1  unbound Cmax at steady state (human patients, plasma; oral, 5 mg daily): 220 ± 30 nM
CC(C)(C(=O)N1CCOc2c(C#N)cncc2C1)C(F)F  subjects with TEAE (item: vascular disorders; healthy humans, both sexes; oral, 40 mg single dose): 0%
CO[C@@H]1[C@H](OC(=O)N2CC(CCN3CCOCC3)C2)CC[C@]2(CO2)[C@H]1[C@@]1(C)O[C@@H]1CC=C(C)C  D-dimer change (human; dose not given, day 28, multiple ascending dose; reference: baseline): -0.04 ± 0.06 mg/dL
CC[C@H](C)C(=O)O[C@H]1C[C@@H](C)C=C2C=C[C@H](C)[C@H](CC[C@@H]3C[C@@H](O)CC(=O)O3)[C@H]21  remaining compound (dog, Beagle, both sexes, whole blood; 5 µM, 120 min): 59.6%
CCN1/C(=C/C(C)=O)Sc2ccc(F)cc21  diastolic blood pressure change (cynomolgus monkey; oral, 10 mg/kg, 6 h post-dose; reference: pre-dose): 114 ± 14.2%
CNC(=O)c1ccc(-c2cnc3ncc(Cc4ccc5ncccc5c4)n3n2)cc1F  patients with adverse event (item: Nausea, all grades; cancer patients; oral, 600 mg twice daily, other expansion cohort, any causality): 44%
CC(C)n1c(Nc2cccnc2)nc2cnc(Nc3ccc(N4CCN(C)CC4)cc3)nc21  subjects with adverse event (item: nausea; healthy male subjects; oral, 100 mg, study, added: itraconazole): 0%
Cc1cc(C)c(CNC(=O)c2cc(Cl)c3c(c2C)O[C@@](C)([C@H]2CC[C@H](N(C)C)CC2)O3)c(=O)[nH]1  grade ≥3 adverse event Hypertension (relapsed/refractory NHL patients; oral, 200 mg once daily, onset after cycle 1 day 1): 12.5%
CN(C(=O)C(C)(C)c1cc(C(F)(F)F)cc(C(F)(F)F)c1)c1cnc(N2C[C@H]3COCCN3C[C@H]2CO)cc1-c1ccc(F)cc1[14CH3]  radioactivity excreted (healthy men, urine; oral, 120 mg, up to 480 h; reference: dose): 0.436%
CN(C(=O)n1cnc(-c2cccnc2)c1)C1CCCCC1  concentration (Wistar rat, midbrain; oral, 10 mg/kg/day of BIA 10-2474, 24 h, repeated 5 days): 8.7 ± 0.1 ng/g
O=C(COc1ccc(N2C(=O)[C@@H]3[C@@H]4C=C[C@@H]([C@H]5C[C@@H]45)[C@@H]3C2=O)cc1)c1cc(Cl)cc(Cl)c1  oral bioavailability (CD-1 mice, female; oral, 20 mg/kg, iv 5 mg/kg reference): 39%
O=C(O)CCCCCCCCCCC(=O)O  relative peak deviation (human, plasma; endogenous baseline diurnal; reference: daily mean concentration): 80.5 ± 10.7%
Cc1ccc([C@@H]2O[C@H](CO)[C@@H](O)[C@H](O)[C@H]2O)cc1Cc1ccc(-c2ccc(F)cc2)s1  urinary chloride excretion change (Japanese type 2 diabetes patients; 25 mg, day 3, 24 h urine collection; reference: baseline): -11.1 mEq
COc1ccc2c(c1)CN(C(=O)CCN1CCC(Cc3ccccc3)CC1)CC[S@@+]2[O-]  diastolic blood pressure (telemetry; conscious dog; intravenous, 2 mg/kg, 0.5 h): 78 ± 3 mmHg
N#Cc1ccc2c(c1)[C@H]1CCCN(C(=O)c3ccc4[nH]cnc4c3)[C@H]1C2  maximum ACTH level (human; 360 mg, day 7): 10.2 pmol/L
Cn1nc2c(=O)n(C3CC3)cnc2c1[C@](O)(c1cnc(C(F)(F)F)c(Cl)c1)C(F)(F)F  AUC0-last (humanized SCID mouse, uninfected, blood; oral, 30 mg/kg single dose): 296 µM·h
N=C(N)NCCNC(=O)C1(Nc2ccccc2)CCN(Cc2ccccc2)CC1  mean residence time (Sprague-Dawley rats, both sexes, plasma; oral, 50 mg/kg, mean of both sexes): 0.4 ± 0.1 h
NC(=O)N1c2ccccc2C=Cc2ccccc21  adverse events incidence (item: musculoskeletal disorders (SOC); human male; oral, dose not given, CTCAE on-treatment AEs): 13%
CC(C)[C@H](C(=O)Nc1ccc(C(=O)NO)cc1)c1ccccc1  measured concentration (whole blood; 1000 ng/mL, 0 h, 4 °C, stability on ice): 1000 ng/mL
CC#CC(=O)N1CCC[C@H]1c1nc(-c2ccc(C(=O)Nc3ccccn3)cc2)c2c(N)nccn12  unbound AUC(0-t) (noncompartmental analysis; human, control subjects, plasma; oral, 50 mg, geometric mean): 3.2 ng·h/mL
C[C@@H](c1ncncc1F)[C@](O)(Cn1cncn1)c1ccc(F)cc1F  drug-related TEAE incidence (item: Photophobia; human; oral, 200 mg): 0%
Cc1cccc(CNC(=O)c2cn(CCNC(=O)c3ccccc3S)c3cc4c(cc3c2=O)OC(F)(F)O4)n1  half-life (Sprague-Dawley rat, male, plasma; intravenous, 20 mg/kg of parent drug): 10.7 ± 0.48 h
O=[N+]([O-])c1cn2c(n1)OC[C@@H](OCc1ccc(N3CCOCC3)c(F)c1)C2  aqueous solubility (aqueous buffer; pH 7.4): 10.1 µg/mL
CC(C)Oc1c(NC(=O)c2ccc(NC(=O)[C@H](CC(N)=O)NC(=O)c3cc(F)c(/N=N/c4c(F)cccc4F)c(F)c3)cc2)ccc(C(=O)N/N=C/c2ccc(C(=O)O)s2)c1O  thermal half-life (absorbance; DMSO; 45 °C, PSS to ground state relaxation): 1.1 h
CCc1nc(C(N)=O)c(Nc2ccc(N3CCC(N4CCN(C)CC4)CC3)c(OC)c2)nc1NC1CCOCC1  Cmax (Japanese patients, plasma; oral, 40 mg, cycle 0 day -2, single dose, median): 31.2 ng/mL
Cc1ccc(Sc2ccccc2N2CCNCC2)c(C)c1  eczema incidence (healthy adult men; oral, 20 mg single dose, treatment-emergent adverse events): 0%
NS(=O)(=O)c1cc(C(=O)O)c(NCc2ccco2)cc1Cl  subjects with adverse event (item: phlebitis; healthy men; oral, 8 days, treatment-emergent, crossover trial): 0%
CCCn1cc(C)c2c(=O)[nH]c(-c3cc(S(=O)(=O)N4CCN(CC)CC4)ccc3OCC)nc21  blood fibrinogen decreased (human; concentration not given, treatment-emergent adverse event): 11.1%
C/C(=N\c1ccc(O)cc1)c1cc2ccccc2n1C  remaining compound (rat plasma; 1000 ng/mL, 15 days, -80 °C; reference: nominal concentration): 91.3 ± 1.8%
C[C@@H](N)c1cc(Cl)ccc1Cn1c(=S)[nH]c(=O)c2[nH]ccc21  non-renal clearance (human, both sexes, severe renal impairment; oral, 2.5 mg single dose, geometric mean): 131 mL/min
C[C@@H](N)COc1ccc(-c2cnc3ccc(N[C@H](C)c4cccc(F)c4)nn23)cc1  average steady-state concentration (human, plasma; recommended dose, total): 772 nmol/L
C=CC(=O)NC1CCN(c2ncc3ncnc(Nc4ccc(Oc5ccc6c(c5)ncn6C)c(C)c4)c3n2)CC1  participants with myalgia (human, male; oral, 240 mg, treatment-emergent adverse event): 6.3%
C[C@H]1CN(C(=O)CC#N)[C@]12CCN(c1ncnc3[nH]ccc13)C2  subjects with Headache (healthy human; oral, 6 mg single): 12.5%
C=CC[C@@H]1/C=C(\C)C[C@H](C)C[C@H](OC)[C@H]2O[C@@](O)(C(=O)C(=O)N3CCCC[C@H]3C(=O)O[C@H](/C(C)=C/[C@@H]3CC[C@@H](O)[C@H](OC)C3)[C@H](C)[C@@H](O)CC1=O)[C@H](C)C[C@@H]2OC  plasma Na+ level (Wistar Kyoto rat, male, plasma; ip, 0.5 mg/kg/day, day 28, at sacrifice): 142 ± 1 mmol/L
C=CC(=O)NC1CCN(c2ncc3ncnc(Nc4ccc(Oc5ccc6c(c5)ncn6C)c(C)c4)c3n2)CC1  aqueous solubility (shake flask; aqueous buffer; 24 h, pH 3.6, 37 °C): 23 µg/mL
COCC(=O)N1CCC[C@H](C(=O)NCc2nc(-c3ccc(C#N)cc3)cs2)C1  unbound hepatic CLint (Sprague-Dawley rat, male, plasma; intravenous, 1 mg/kg): 57 mL/min/kg
CO[C@H]1C[C@@H]2CC[C@@H](C)[C@@](O)(O2)C(=O)C(=O)N2CCCC[C@H]2C(=O)O[C@H]([C@H](C)C[C@@H]2CC[C@@H](OC(=O)NCCOCCOCCOCCOCCOCCOCCOCCOCCC(=O)N3CCc4cc(Cn5nc(-c6ccc7oc(N)nc7c6)c6c(N)ncnc65)ccc4C3)[C@H](OC)C2)C[C@@H](O)[C@H](C)/C=C(\C)[C@@H](O)[C@@H](OC)C(=O)[C@H](C)C[C@H](C)/C=C/C=C/C=C/1C  AUClast ratio (human patients, plasma; intravenous, 1.6 mg, cycle 1; reference: day 15 over day 1): 2.4
CN(C)C/C=C/C(=O)Nc1cc2c(Nc3ccc(F)c(Cl)c3)ncnc2cc1O[C@H]1CCOC1  aqueous solubility (200 mM SBE-β-CD in water; 24 h): 1310 ± 39 µM
CC[C@H](C)CCCCC(=O)N[C@@H](CCN)C(=O)N[C@H](C(=O)N[C@@H](CCN)C(=O)N[C@H]1CCNC(=O)[C@H]([C@@H](C)O)NC(=O)[C@H](CCN)NC(=O)[C@H](CCN)NC(=O)[C@H](CC(C)C)NC(=O)[C@@H](Cc2ccccc2)NC(=O)[C@H](CCN)NC1=O)[C@@H](C)O  adverse event incidence (item: nervous system disorders; normal renal function subjects; IV, 0.75 mg/kg): 75%
C=CCN1CC(=O)N2[C@@H](Cc3ccc(O)cc3F)C(=O)N(Cc3cccc(N4CC(N5CCN(CC)CC5)C4)n3)C[C@@H]2N1C(=O)NCc1ccccc1  treatment-related AST increased (advanced solid tumour patients; oral, 15 mg twice daily, grade ≥3, dose-escalation): 0%
NC[C@@H]1O[C@H](O[C@H]2[C@@H](O)[C@H](O[C@@H]3[C@@H](O)[C@H](N)C[C@H](N)[C@H]3O[C@H]3O[C@H](CO)[C@@H](O)[C@H](O)[C@H]3N)O[C@@H]2CO)[C@H](N)[C@@H](O)[C@@H]1O  body weight (NSG mice; dose not given, day 15 of treatment): 23.3 g and 23.9 g and 25.9 g and 23.6 g and 23.8 g and 24.1 g and 21.4 g and 24.2 g
Cc1cc(Nc2ccc(S(F)(F)(F)(F)F)cc2)n2nc(C(C)(F)F)nc2n1  adverse event Diarrhoea (Plasmodium falciparum malaria patients; oral, 250 mg): 9.1%
O=C(Nc1cnccc1Cl)N1CCN(Cc2ccc3c(c2)OC(F)(F)O3)CC1  dose-normalized Cmax (young men, plasma; oral, 10 mg once daily, day 10, normalized to 10 mg): 78.9 ng/mL
COc1ncc(-c2nc3c(n2C(C)C)[C@H](c2ccc(Cl)cc2)N(c2cc(Cl)cn(C)c2=O)C3=O)c(OC)n1  Cmax (LC-MS/MS; human, plasma; oral, 15 mg, cycle 1 day 14, low-dose arm): 106 ng/mL
CNCc1ccc(-c2[nH]c3cc(F)cc4c3c2CCNC4=O)cc1  dizziness incidence (human patients; oral, 600 mg twice daily, grade 2): 3.8%
O=C(c1cccnc1-c1ccncc1)N1CCC(O)(Cc2ccccc2)CC1  terminal elimination rate constant (healthy Japanese adults, plasma; oral, 100 mg twice daily, day 1): 5.56e-05 s⁻¹
O=C(Nc1nc2cccc(-c3ccc(CN4CCS(=O)(=O)CC4)cc3)n2n1)C1CC1  treatment-emergent adverse events (item: metabolism and nutrition disorders; human rheumatoid arthritis patients; oral, 300 mg once daily, 4 weeks, regardless of relatedness): 0%
Cc1ccc(O)c(-n2nc3ccccc3n2)c1  daily dermal exposure dose (human aged 16-21 years; concentration not given, foundation, 95th percentile): 427 ng/kg/day
COc1ccc([C@@H](O)c2cc(-c3ncnc4cc(N5CCOCC5)ccc34)c(F)cc2Cl)nn1  blood lymphatic disorder TEAE (locally advanced rectal cancer patients; 250 mg, added: capecitabine and radiotherapy): 67%
